# Measured values of several laboratories.
# Parts stem from different laboratories: compare values within a part only.
# Sequence of UniProt P51812 (whole entry, looked up): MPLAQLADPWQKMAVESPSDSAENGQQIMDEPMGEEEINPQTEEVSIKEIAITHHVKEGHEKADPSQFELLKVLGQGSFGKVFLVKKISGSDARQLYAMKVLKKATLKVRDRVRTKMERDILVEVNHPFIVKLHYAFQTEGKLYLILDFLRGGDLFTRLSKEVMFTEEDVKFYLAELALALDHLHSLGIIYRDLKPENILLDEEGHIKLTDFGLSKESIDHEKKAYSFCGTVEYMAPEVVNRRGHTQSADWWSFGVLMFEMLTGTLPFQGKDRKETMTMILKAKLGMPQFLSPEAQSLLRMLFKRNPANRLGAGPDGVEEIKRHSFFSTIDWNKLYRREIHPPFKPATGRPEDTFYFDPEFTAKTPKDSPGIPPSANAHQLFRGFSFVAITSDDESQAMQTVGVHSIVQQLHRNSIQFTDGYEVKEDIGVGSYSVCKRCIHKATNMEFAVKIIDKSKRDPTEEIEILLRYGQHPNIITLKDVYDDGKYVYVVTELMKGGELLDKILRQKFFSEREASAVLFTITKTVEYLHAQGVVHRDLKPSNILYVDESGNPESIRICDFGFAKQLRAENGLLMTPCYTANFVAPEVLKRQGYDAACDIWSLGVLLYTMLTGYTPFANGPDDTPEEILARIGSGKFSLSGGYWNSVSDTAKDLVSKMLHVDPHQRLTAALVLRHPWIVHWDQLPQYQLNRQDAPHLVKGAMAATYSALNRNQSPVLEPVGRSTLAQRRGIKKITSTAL
# Sequence of UniProt P49759 (whole entry, looked up): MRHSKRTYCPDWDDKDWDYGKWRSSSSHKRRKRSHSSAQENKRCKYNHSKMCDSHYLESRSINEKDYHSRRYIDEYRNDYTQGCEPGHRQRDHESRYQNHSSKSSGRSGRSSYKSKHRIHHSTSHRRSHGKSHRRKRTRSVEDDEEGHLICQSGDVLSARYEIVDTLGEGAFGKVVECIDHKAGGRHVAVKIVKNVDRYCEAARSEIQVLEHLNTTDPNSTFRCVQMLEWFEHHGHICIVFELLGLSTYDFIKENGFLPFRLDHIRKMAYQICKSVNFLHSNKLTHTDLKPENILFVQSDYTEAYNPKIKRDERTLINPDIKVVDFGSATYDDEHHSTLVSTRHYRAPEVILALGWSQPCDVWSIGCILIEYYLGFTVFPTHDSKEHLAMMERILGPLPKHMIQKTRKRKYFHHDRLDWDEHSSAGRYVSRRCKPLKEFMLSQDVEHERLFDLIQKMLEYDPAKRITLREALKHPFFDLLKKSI
# Sequence of UniProt P08069 (whole entry, looked up): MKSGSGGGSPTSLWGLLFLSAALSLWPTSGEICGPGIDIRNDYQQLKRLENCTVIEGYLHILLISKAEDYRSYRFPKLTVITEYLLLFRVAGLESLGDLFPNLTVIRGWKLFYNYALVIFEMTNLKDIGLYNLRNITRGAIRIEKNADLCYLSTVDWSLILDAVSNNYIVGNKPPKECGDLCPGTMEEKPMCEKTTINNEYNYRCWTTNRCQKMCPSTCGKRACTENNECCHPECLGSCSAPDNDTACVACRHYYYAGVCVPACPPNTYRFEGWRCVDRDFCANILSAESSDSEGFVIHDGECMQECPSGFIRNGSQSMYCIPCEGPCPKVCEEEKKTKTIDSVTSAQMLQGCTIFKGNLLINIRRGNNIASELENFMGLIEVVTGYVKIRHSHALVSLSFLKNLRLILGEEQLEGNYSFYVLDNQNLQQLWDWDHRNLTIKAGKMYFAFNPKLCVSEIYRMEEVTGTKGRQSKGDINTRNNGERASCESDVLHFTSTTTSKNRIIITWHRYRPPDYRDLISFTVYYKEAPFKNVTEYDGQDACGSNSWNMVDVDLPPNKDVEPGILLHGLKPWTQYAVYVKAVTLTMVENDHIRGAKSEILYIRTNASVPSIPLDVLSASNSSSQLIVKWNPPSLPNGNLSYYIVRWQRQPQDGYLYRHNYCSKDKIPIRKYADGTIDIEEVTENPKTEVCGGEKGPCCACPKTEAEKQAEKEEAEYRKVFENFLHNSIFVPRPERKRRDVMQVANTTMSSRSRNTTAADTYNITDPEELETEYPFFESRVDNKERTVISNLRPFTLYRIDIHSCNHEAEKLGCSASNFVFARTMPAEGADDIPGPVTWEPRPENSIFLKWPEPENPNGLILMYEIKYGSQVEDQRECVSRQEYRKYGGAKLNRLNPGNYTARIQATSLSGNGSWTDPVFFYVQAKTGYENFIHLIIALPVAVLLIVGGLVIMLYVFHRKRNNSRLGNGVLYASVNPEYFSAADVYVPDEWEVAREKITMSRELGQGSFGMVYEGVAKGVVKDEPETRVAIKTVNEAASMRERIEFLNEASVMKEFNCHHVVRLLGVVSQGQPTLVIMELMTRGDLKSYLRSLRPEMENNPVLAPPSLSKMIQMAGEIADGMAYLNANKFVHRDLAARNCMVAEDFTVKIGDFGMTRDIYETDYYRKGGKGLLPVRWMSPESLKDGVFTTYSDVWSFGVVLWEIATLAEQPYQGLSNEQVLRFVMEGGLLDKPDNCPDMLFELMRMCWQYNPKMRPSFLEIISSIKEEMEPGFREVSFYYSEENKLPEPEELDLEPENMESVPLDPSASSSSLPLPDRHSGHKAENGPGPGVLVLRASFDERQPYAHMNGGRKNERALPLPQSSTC
# Sequence of UniProt P11802 (whole entry, looked up): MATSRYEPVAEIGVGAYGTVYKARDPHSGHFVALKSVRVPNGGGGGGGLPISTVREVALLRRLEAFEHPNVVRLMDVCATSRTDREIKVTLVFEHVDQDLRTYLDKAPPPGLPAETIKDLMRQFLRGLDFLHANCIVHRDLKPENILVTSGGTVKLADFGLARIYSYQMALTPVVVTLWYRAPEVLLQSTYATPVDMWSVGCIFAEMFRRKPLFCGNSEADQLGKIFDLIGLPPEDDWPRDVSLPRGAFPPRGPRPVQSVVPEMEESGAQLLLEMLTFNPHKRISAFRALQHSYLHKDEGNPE
# Sequence of UniProt Q9UF33 (whole entry, looked up): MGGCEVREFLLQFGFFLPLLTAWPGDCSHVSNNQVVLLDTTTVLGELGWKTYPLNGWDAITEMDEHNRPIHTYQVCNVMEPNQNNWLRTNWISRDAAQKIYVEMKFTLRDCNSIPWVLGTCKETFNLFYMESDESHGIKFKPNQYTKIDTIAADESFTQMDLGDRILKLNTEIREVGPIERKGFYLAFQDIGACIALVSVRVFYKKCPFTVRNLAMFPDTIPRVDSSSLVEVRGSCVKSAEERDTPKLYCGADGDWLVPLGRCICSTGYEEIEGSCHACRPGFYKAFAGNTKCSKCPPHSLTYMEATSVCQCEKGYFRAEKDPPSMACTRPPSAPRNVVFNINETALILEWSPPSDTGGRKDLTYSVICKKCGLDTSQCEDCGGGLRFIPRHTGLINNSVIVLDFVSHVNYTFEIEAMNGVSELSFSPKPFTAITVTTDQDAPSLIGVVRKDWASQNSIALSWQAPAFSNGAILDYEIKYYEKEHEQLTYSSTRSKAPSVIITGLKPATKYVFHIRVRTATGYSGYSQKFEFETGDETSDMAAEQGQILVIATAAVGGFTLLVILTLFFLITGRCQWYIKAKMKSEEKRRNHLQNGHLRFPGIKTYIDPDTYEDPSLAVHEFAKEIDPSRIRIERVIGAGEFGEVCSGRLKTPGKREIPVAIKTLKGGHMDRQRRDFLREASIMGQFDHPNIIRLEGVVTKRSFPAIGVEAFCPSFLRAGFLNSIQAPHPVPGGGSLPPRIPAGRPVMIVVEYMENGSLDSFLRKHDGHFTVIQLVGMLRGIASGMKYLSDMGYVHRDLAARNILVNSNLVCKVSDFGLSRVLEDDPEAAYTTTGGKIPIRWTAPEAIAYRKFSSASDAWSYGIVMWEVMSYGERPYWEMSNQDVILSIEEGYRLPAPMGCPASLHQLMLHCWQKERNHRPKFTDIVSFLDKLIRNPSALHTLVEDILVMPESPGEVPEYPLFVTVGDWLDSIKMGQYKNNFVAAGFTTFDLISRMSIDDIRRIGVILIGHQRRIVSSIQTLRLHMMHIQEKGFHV
# Sequence of UniProt P10721 (whole entry, unmodified, looked up): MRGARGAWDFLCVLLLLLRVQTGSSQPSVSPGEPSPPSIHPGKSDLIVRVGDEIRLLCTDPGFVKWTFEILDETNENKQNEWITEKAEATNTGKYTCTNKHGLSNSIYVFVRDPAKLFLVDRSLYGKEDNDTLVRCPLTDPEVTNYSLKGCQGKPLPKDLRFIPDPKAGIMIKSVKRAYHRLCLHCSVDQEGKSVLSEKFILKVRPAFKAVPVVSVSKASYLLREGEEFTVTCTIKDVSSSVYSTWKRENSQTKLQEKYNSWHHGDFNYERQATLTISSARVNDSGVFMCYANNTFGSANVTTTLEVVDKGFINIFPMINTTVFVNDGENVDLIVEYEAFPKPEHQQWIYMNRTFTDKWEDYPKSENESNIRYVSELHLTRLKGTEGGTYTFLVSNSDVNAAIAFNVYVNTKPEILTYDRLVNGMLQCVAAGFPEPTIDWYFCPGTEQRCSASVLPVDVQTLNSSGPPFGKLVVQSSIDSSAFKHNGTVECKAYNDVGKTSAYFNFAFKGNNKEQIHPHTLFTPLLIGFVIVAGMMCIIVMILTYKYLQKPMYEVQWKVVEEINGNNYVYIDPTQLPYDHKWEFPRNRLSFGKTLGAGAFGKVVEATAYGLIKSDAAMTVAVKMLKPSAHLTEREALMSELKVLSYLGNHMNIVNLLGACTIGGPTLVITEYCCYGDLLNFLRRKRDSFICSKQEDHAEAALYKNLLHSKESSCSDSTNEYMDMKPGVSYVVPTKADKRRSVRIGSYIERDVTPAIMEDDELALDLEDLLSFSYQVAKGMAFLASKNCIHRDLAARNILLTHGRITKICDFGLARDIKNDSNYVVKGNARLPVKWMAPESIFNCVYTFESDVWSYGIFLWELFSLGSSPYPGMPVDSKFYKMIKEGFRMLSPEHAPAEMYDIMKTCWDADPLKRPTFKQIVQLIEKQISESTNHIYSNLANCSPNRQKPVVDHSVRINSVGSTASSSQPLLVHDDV

# Study 1 — cell line: mouse MPNST tumor cells; technique: high-content nuclear imaging; measured: cell number; concentration: 10 µM; time: 12 h; notes: mean of 2 replicates; baseline: plate mean; direction: higher = more cells
Structure (SMILES),nuclei count
O=C(Nc1cccc(Br)c1)c1cccc(S(=O)(=O)N2CCCCCC2)c1,1.54 z-score
O=C(Nc1cnc(Cl)nc1)c1ccc(F)c(F)c1,1.26 z-score
COc1cc(C(=S)N2CCOCC2)cc(OC)c1OC,0.953 z-score
Oc1c(I)cc(Cl)c2cccnc12,1.48 z-score
CN1CCc2ccccc2Cc2[nH]c3ccccc3c2CC1,0.53 z-score
Clc1cccc(CN=C2Nc3ccccc3NC23CCNCC3)c1,-5.43 z-score
NC(=O)c1ccc(F)c2c1C[C@@H](N(C1CCC1)C1CCC1)CO2,0.385 z-score
COc1ccc2[nH]c3c(-c4cccc5ccccc45)nccc3c2c1,-4.03 z-score

# Study 2 — technique: logD(dd/w) and ALogP; notes: JT method
SMILES,lipophilic permeability efficiency
CC(C)C[C@@H]1NC(=O)[C@H](C)NC(=O)[C@@H](CC(C)C)NC(=O)[C@H](CC(C)C)NC(=O)[C@@H](CCC(=O)N2CCCC2)NC(=O)[C@H](CC(C)C)NC(=O)[C@@H](CC(C)C)NC1=O,2.23
CC(C)C[C@@H]1NC(=O)[C@H](C)NC(=O)[C@@H](CC(C)C)NC(=O)[C@@H](CC(C)C)NC(=O)[C@H](C(C)C)NC(=O)[C@H](CC(C)C)NC(=O)[C@@H](CC(C)C)NC1=O,3.28
CC(C)C[C@@H]1NC(=O)[C@@H](C)NC(=O)[C@@H](CC(C)C)NC(=O)[C@@H](C(C)C)NC(=O)[C@H](C)NC(=O)[C@H](CC(C)C)NC(=O)[C@@H](CC(C)C)NC1=O,2.64
CC(C)C[C@@H]1NC(=O)[C@H](CC(C)C)NC(=O)[C@H](CC(C)C)NC(=O)[C@H](CC(C)C)NC(=O)[C@H](C(C)C)NC(=O)[C@H](C)NC(=O)[C@H](C)NC1=O,2.48
CC(C)C[C@@H]1NC(=O)[C@H](CC(C)C)NC(=O)[C@@H](CC(C)C)NC(=O)[C@H](C)NC(=O)[C@@H](CCC(=O)N2CCCC2)NC(=O)[C@H](C)NC(=O)[C@H](C)NC1=O,1.3
CC(C)C[C@@H]1NC(=O)[C@H](C)NC(=O)[C@H](CC(C)C)NC(=O)[C@H](C(C)C)NC(=O)[C@H](CC(C)C)NC(=O)[C@@H](CC(C)C)NC(=O)[C@H](CC(C)C)NC1=O,2.58
CC(C)C[C@@H]1NC(=O)[C@H](CC(C)C)NC(=O)[C@@H](CC(C)C)NC(=O)[C@@H](CC(C)C)NC(=O)[C@@H](Cc2cscn2)NC(=O)[C@H](CC(C)C)NC(=O)[C@@H](CC(C)C)NC1=O,2.13

# Study 3 — effect on: enzyme activity; action: inhibitor; concentration: 0.5 µM; baseline: control
# SMILES: FC(F)(F)c1ccc(/C=C/c2nc(COc3ccc(CCCCn4ccnn4)cc3)co2)cc1
target,remaining activity [%]
"Cyclin-dependent kinase 2, with cyclin E (CDK2, Homo sapiens, UniProt P24941)",96.3
"TYRO3 (Homo sapiens, UniProt Q06418)",103
"CAMK1 (Homo sapiens, UniProt Q14012)",105
"PRKCZ (Homo sapiens, UniProt Q05513)",101
"JAK1 (Homo sapiens, UniProt P23458)",103
"SRPK1 (Homo sapiens, UniProt Q96SB4)",98.1
"CLK2 (Homo sapiens, UniProt P49760)",89.6
"CSNK1D (Homo sapiens, UniProt P48730)",96.6
"TEC (Homo sapiens, UniProt P42680)",86.4
"SGK2 (Homo sapiens, UniProt Q9HBY8)",103
"CSNK1E (Homo sapiens, UniProt P49674)",95.5
"PAK6 (Homo sapiens, UniProt Q9NQU5)",100
"EPHA2 (Homo sapiens, UniProt P29317)",102
"CAMKK1 (Homo sapiens, UniProt Q8N5S9)",96.7
"PRKCQ (Homo sapiens, UniProt Q04759)",99.9
"RPS6KA3 (Homo sapiens, UniProt P51812)",96.8
"CLK1 (Homo sapiens, UniProt P49759)",101
"IGF1R (Homo sapiens, UniProt P08069)",101
"EPHA6 (Homo sapiens, UniProt Q9UF33)",99.3
"MAP3K20 (Homo sapiens, UniProt Q9NYL2)",98.5
"FLT1 (Homo sapiens, UniProt P17948)",95.5

# Study 4 — technique: competition with immobilised ligand; concentration: 1 µM
# SMILES: CN(C)C(=O)Cn1cc(-c2nc(C3(c4ccc(-c5cnc(N)nc5)cc4)CC3)no2)cn1
target,effect on,remaining binding [%]
"IRAK3 (Homo sapiens, UniProt Q9Y616)",cell-free assay,96
"KIT (Homo sapiens, UniProt P10721, D816H)",cell-free assay,85
"PIK3C3 (Homo sapiens, UniProt Q8NEB9)",cell-free assay,96
"Cyclin-dependent kinase 4, with cyclin D3 (CDK4, Homo sapiens, UniProt P11802)",cell-free assay,100
"Ribosomal protein S6 kinase alpha-3, C-terminal kinase domain (RPS6KA3, Homo sapiens, UniProt P51812)",cell-free assay,85
"CDK15 (Homo sapiens, UniProt Q96Q40)",cell-free assay,100
"CDK11A (Homo sapiens, UniProt Q9UQ88)",binding,89
"TNNI3K (Homo sapiens, UniProt Q59H18)",cell-free assay,100
"EGFR (Homo sapiens, UniProt P00533, del747-752/P753S)",cell-free assay,79
"VRK2 (Homo sapiens, UniProt Q86Y07)",cell-free assay,90
